Measured values from different studies.
Compare with care: the assays were run in different laboratories.
Organism: Staphylococcus aureus

SMILES	test	test system	conditions	how to read	MIC
C=C(NC(=O)C(=C)NC(=O)c1csc(C2=NC3c4csc(n4)C4NC(=O)c5csc(n5)C(C(C)(O)C(C)O)NC(=O)C5CSC(=N5)C(=CC)NC(=O)C(C(C)O)NC(=O)c5csc(n5)C3(CC2)NC(=O)C(C)NC(=O)C(=C)NC(=O)C(CCSC)NC(=O)C(C(C)CC)NC2C=Cc3c(C(C)O)cc(nc3C2O)C(=O)OC4C)n1)C(N)=O (stereo not drawn)	broth microdilution	ATCC 10537 MRSA	18 h, 37 °C		0.014 µg/mL
CC(C)C(O)C(NC(=O)[C@H](Cc1ccc(O)cc1)NC(=O)C(Cc1ccc(O)cc1)[N+](C)(C)C)C(=O)N[C@@H](C)C(=O)O (stereo partly drawn)		ATCC 29213			> 100 µM
O=C(NCCNCCO)c1cn(Cc2ccccc2)c2c(Cl)c(OCc3ccc(C(F)(F)F)cc3)c(Cl)cc2c1=O		ATCC 43300 MRSA		≥80% growth inhibition	< 0.25 µg/mL
CC(C)SC1COC(=O)N1/N=C/c1ccc([N+](=O)[O-])o1 (stereo not drawn)	microbial growth, broth dilution	ATCC29213	18 h		12.5 µg/mL
CCOC1(C)CC2C=CC3C(C)C=CC=CC(C)OC(=O)C(C)C(=O)C(Cl)(Cl)C(=O)C3C2C(C)C1O (stereo not drawn)	microbial growth, broth dilution	NEWMAN			2 to 4 µg/mL
COCO[C@H]1[C@H](O)[C@@H](N)[C@@H](O[C@H]2[C@H](O[C@@H]3O[C@H](CO)[C@@H](O[C@H]4O[C@@H](CN)[C@@H](O)[C@H](O)[C@H]4N)[C@H]3O)[C@@H](O)[C@H](N)C[C@@H]2N)O[C@@H]1CO	broth microdilution	MRSA isolate AG 038			16 to 32 µg/mL
CNC(CC(C)C)C(=O)NC1C(=O)NC(CC(N)=O)C(=O)NC2C(=O)NC3C(=O)NC(C(=O)NC(C(=O)O)c4cc(O)cc(O)c4-c4cc3ccc4O)C(O)c3ccc(c(Cl)c3)Oc3cc2cc(c3OC2OC(CO)C(O)C(O)C2OC2CC(C)(NC(=O)CCCCCC[n+]3ccccc3)C(O)C(C)O2)Oc2ccc(cc2Cl)C1O (stereo not drawn)	agar dilution	MRSA clinical isolate MRSA3			64 µg/mL
CN(Cc1cc(N(C)C)c2c(c1O)C(=O)C1=C(O)[C@]3(O)C(=O)C(C(N)=O)=C(O)[C@@H](N(C)C)[C@@H]3C[C@@H]1C2)CC(C)(C)C		MRSA 5, Tet M ribosome protection			0.5 µg/mL
C[n+]1ccc(/C=C2\Sc3ccccc3N2CCCN2CCCC2)c2ccccc21	microbial growth, broth dilution	MRSA			16 µg/mL
CCCCc1ccc(N2C(=O)/C(=N\NC(=N)N)c3cc(F)ccc32)cc1	microbial growth, broth dilution		18 h		12 µg/mL
COc1cc(NC(=O)CSc2nc3ccccc3c(=O)n2-c2ccc(S(N)(=O)=O)cc2)cc(OC)c1		methicillin-resistant	24 h, 37 °C		12.5 µg/mL
CC(C)CNCc1cc(N(C)C)c2c(c1O)C(=O)C1=C(O)[C@]3(O)C(=O)C(C(N)=O)=C(O)[C@@H](N(C)C)[C@@H]3C[C@@H]1C2		MRSA 5, Tet M, 50% human serum			2 µg/mL
C[n+]1ccn(CC([O-])c2ccccc2)[c]1[Ag-][I].[Na+] (stereo not drawn)	broth dilution	ATCC 23235	18 h, 37 °C		10 µg/mL
CN(C)c1cc(CNCc2ccco2)c(O)c2c1C[C@H]1C[C@H]3[C@H](N(C)C)C(O)=C(C(N)=O)C(=O)[C@@]3(O)C(O)=C1C2=O		MRSA 5, Tet M ribosome protection			1 µg/mL
COc1cc(Cc2cnc(N)nc2N)cc(/C=C/C(=O)N2N=Cc3ccccc3C2c2ccccc2)c1OC (stereo not drawn)	microbial growth, broth dilution	ATCC29213	pH 5.8		0.5 µg/mL
